Experimental data from different studies.
Parts stem from different laboratories: compare values within a part only. Substitutions count along the parent as printed.

Study 1
Target: Histone acetyltransferase KAT6A, both winged helices, GST fusion (KAT6A, Homo sapiens, UniProt Q92794, residues 1-181)
Method: protein binding microarray
Molecule type: double-stranded DNA, one strand shown
Medium: in vitro
Tested at: not given
Notes: 8-mer, flanks averaged, mean of 2 arrays, mostly near background
Relative to: not given
Direction: higher = stronger binding
Construct (chain): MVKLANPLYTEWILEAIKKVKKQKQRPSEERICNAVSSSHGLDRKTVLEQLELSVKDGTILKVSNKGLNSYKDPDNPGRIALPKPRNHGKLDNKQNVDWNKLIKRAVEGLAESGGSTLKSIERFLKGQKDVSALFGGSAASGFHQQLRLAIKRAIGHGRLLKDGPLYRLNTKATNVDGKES
| Oligonucleotide | E-score |
| --- | --- |
| CCCAACGC | 0.0979 |
| CTAACGGC | 0.217 |
| CACGGTGA | 0.0791 |
| TAATACCA | -0.0866 |
| GGGAACAC | -0.0256 |
| AGCCGACG | 0.317 |
| CGACGTTC | 0.0847 |
| CAGTCCTC | -0.149 |

Study 2
Target: RING finger protein unkempt homolog, zinc fingers 1-6, GST-SBP tag (UNK, Homo sapiens, UniProt Q9C0B0, residues 30-357)
Method: RNA Bind-n-Seq
Molecule type: RNA
Medium: in vitro
Tested at: not given
Notes: RNA with constant flanks, human and mouse sites, ends assumed
Relative to: input RNA pool
Direction: higher = stronger binding
All sequences stand within: GGGAGUUCUACAGUCCGACGAUC … CAACAGAGGAUUGAGCAUCA
Construct (chain): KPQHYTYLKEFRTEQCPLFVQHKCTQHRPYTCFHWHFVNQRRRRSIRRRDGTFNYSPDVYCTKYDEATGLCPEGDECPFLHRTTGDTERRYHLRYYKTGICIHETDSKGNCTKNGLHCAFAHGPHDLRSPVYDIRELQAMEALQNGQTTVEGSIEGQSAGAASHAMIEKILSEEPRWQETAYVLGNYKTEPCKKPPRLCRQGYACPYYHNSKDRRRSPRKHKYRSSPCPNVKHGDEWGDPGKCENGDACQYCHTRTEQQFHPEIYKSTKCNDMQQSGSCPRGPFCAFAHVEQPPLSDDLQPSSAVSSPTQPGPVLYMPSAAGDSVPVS
| Oligonucleotide | bound/input enrichment [ratio] |
| --- | --- |
| CCACCUCACCCAGGCAUGGGCCCUCCCCAGAGUCCAAUGGAUCAACACAGCCAAGGUUAUAUGUCACCACACCCAUCUCCAUUAGGAGCCCCAGAGCACGUCUCCAGCCCUAUGUCUGGA | 0.32 |
| GGGGGGGGUGUGCCUGCUGUACUUGACUGAAGUGUAAAGCUUUGGUAAGGAUUUGGCCUCUAGCAGUCUUAGGUUUCUGCAUUUACCACGGUGACACAGCCCCUACAGGGCUGACUAGGA | 0.642 |
| AGGCAUCCAGGUUUAAGAAACAUUCUGCCUAUAACUACUGCCAAAGUGCCUAUUGUAAAAUUUGAACACAGGAGAAGUGGACUAGAAGGUGAUAUCAGUUUAUAUAACACAUUGGCUCAA | 0.919 |
| GAUUAUGUGCCUGCUUUAAAAGGUUUGGGUGAAUGCCAUCUUAUGAUGGCAAAAGCAGCUCUAGUUGAUUAUCUUGAUGGAAAAGCCGUAGACUACAUAGAAAAAGCACUGGAAUAUUUU | 3.13 |
| AAGCUCCUUCAUGACUUGGUACAACCUCCAACCAUCACUCAACAGUCACCAAAAGACUACAUCAUUGACCCUCGGGAGAAUAUUGUAAUCCAGUGUGAGGCCAAAGGGAAACCUCCCCCA | 0.202 |
| CUUUGAUGUCUUGCAUAUAUUGCUGGUGGUAUUUAUGUGAAUUUUGUACAGUGAUUUAAUCUUGUAGUUUAUCAUUUGUACAAUUGCACUAUCUAAAUGUACUCCCUUCUGAAUGUUAAU | 0.125 |
| CAGCCCUGCAUGGGUUUGUUUGUUUUUUUACUGCUCACUCCCAACCUUUUGUAAUGCCAUUUUCUAAACUUAUUUCUGAGUGUAGUCUCAGCUUAAAGUUGUGUAAUACUAAAAUCACGA | 0.0963 |
| AUGCAGAGACUCCCCAUGCAAUCUGAAUGAAACCGGUGUUGGCUGGAAUACUUUUUCUCUUCUGUGAGCUAUGUUAAUUCUGUCUCCAAUGGGCCCAAUGUUUGAAAAGUCAGAUGUCUA | 0.154 |

Study 3
Target: ABI1, truncated, D143A, DHFR fusion (Arabidopsis thaliana)
Method: DHFR PCA, deep sequencing
Medium: yeast
Notes: methotrexate growth selection, single substitutions
With: (+)-ABA 0.032 µM
Relative to: wild-type fitted maximum
Direction: higher = stronger binding
Parent: PYL1, truncated, DHFR fusion (Arabidopsis thaliana); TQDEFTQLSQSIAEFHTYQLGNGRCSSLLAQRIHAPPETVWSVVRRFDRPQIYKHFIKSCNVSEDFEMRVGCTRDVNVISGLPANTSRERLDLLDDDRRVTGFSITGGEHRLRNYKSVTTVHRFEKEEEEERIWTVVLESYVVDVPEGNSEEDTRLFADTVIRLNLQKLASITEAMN
| Variant | relative binding score [%] |
| --- | --- |
| L94V | 0.966 |
| P37Q | 6.24 |
| L166I | 5.64 |
| Q51P | -8.26 |
| R111Y | 6.79 |
| T106M | 45.5 |
| T6W | 21.5 |
| I52K | 2.18 |

Mixed results
Parent: PafA, mature enzyme, eGFP fusion (Elizabethkingia meningoseptica, UniProt Q9KJX5); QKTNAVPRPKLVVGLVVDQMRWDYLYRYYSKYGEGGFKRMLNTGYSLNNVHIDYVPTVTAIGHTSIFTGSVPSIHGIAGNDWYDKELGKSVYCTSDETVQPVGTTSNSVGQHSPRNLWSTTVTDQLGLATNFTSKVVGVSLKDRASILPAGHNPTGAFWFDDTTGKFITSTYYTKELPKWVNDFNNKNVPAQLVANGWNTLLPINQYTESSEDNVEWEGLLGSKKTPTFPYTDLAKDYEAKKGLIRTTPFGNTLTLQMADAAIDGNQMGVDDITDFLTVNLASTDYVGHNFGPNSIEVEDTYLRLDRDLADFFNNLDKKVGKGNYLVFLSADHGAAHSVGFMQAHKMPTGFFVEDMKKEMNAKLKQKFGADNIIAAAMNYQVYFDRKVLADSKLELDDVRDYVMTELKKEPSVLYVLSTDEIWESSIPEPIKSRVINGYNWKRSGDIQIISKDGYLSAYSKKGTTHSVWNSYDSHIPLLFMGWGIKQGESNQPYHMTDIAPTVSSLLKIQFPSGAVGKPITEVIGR
| Variant | target | assay | test system | conditions | how to read | measurement | result |
| --- | --- | --- | --- | --- | --- | --- | --- |
| V6A | inorganic phosphate, free oxyanion | microfluidic competitive inhibition | in vitro, cell-free expressed | not given, derived from inhibition constants, unchanged parent 615000 nM | lower = stronger binding | phosphate dissociation constant | 598 µM |

A few entries again (study 2):
| Oligonucleotide | bound/input enrichment [ratio] |
| --- | --- |
| AGGCAUCCAGGUUUAAGAAACAUUCUGCCUAUAACUACUGCCAAAGUGCCUAUUGUAAAAUUUGAACACAGGAGAAGUGGACUAGAAGGUGAUAUCAGUUUAUAUAACACAUUGGCUCAA | 0.919 |
| GAUUAUGUGCCUGCUUUAAAAGGUUUGGGUGAAUGCCAUCUUAUGAUGGCAAAAGCAGCUCUAGUUGAUUAUCUUGAUGGAAAAGCCGUAGACUACAUAGAAAAAGCACUGGAAUAUUUU | 3.13 |
| AAGCUCCUUCAUGACUUGGUACAACCUCCAACCAUCACUCAACAGUCACCAAAAGACUACAUCAUUGACCCUCGGGAGAAUAUUGUAAUCCAGUGUGAGGCCAAAGGGAAACCUCCCCCA | 0.202 |
